Assay results of several laboratories.
Compare with care: the assays were run in different laboratories. ± marks the error that the study gave.
TDP1: Tyrosyl-DNA phosphodiesterase 1 (TDP1, Homo sapiens, UniProt Q9NUW8)
UniProt Q9NUW8, sequence (whole entry, looked up): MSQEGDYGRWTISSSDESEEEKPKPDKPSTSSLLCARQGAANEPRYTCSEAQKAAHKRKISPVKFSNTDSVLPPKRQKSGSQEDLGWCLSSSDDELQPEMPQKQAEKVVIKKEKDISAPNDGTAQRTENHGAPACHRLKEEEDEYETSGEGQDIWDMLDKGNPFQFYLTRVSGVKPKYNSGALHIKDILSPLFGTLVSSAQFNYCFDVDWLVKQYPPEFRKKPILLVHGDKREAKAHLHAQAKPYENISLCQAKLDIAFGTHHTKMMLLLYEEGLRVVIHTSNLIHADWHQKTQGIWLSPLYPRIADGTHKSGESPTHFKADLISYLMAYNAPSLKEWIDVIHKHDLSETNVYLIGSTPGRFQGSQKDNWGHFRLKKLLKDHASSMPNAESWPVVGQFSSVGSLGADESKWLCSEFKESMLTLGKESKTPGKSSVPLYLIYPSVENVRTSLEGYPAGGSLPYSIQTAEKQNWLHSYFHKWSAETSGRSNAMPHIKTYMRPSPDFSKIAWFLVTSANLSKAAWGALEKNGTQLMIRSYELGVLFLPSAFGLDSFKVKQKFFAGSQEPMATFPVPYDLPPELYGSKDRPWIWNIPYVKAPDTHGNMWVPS

Structure (SMILES) | target or system | test | system | setting | scale | endpoint | result
CCCCCC=NOCc1ccc(-c2nc3cc(-c4ccccc4)ccn3c2Nc2ccc(C(=O)O)cc2)cc1 (mixture of isomers) | TDP1 | enzyme activity, inhibitor | – | 100 µM, unpurified compound | – | inhibition | 26%
CNS(=O)(=O)Nc1nccc(Cc2c(C)c3ccc(Oc4ncccc4F)cc3oc2=O)c1F | COR-L88 | cell viability | – | 7 days | – | IC50 | > 1000 nM
CN(C)c1ccc(C=NOCc2ccc3nc(-c4ccccc4)c(Nc4ccc(C(=O)O)cc4)n3c2)cc1 | TDP1 | enzyme activity, inhibitor | – | 100 µM, unpurified compound | – | inhibition | 62.9%
CC=C(C)C(=O)OC1CC2C(C=C(C)C3C(OC(C)=O)CC(=O)C13C)OC(=O)C2C (stereo not shown) | Helicobacter pylori | microbial growth, broth dilution | – | 15.63 µg/mL | – | inhibition | 0%
Cc1ncsc1-c1ccc(C(C)NC(=O)C2CC(O)CN2C(=O)C(NC(=O)CCCCCCCCCCN2CCCC(Nc3ncc(Cl)c(Nc4ccccc4S(=O)(=O)C(C)C)n3)C2)C(C)(C)C)cc1 (stereo not shown) | 22Rv1 | RNA-seq, item: SPRY4 mRNA | – | concentration not given | relative to: DMSO | log2 fold change | -1.23
COCC1CN(C2CCN(c3cc(OC)c(Nc4ncc(Br)c(Nc5ccc6c(c5P(C)(C)=O)OCCO6)n4)cc3C)CC2)C1 | – | RECIST 1.1 | advanced EGFR-mutant NSCLC patients | 60 mg once daily | – | progressive disease | 100%
Cn1ncc2cc(-c3cncc(Cl)c3N3CCC4(CCNC4=O)CC3)ccc21 | LS174T | gene expression, microarray, item: CCDC80 mRNA | – | concentration not given, 24 h | relative to: untreated cells | log2 fold change | 6.41
c1ccc(-c2n[nH]cc2-c2ccnc3ccccc23)nc1 | PBS2 (Candida albicans) | kinase binding, MIB/MS competition | Candida albicans lysate | 1 µM | relative to: DMSO | log2 fold change | -0.03
CO[C@@H]1OC[C@@H](O)[C@H](O)[C@H]1O | Helicobacter pylori | microbial growth, broth dilution | – | 62.5 µg/mL | – | inhibition | 11.7%
COc1ccc(C(=O)CCc2cc(C(CCc3ccc(O)cc3OC)c3ccc(O)cc3)c(O)cc2OC)cc1 (racemic) | – | – | human blood | 10 µM, added: A23187 | – | 12-HETE level | 10300 ± 4320 pg/mL
COC1CN([C@H]2CC[C@H]([C@@]3(C)Oc4c(Cl)cc(C(=O)NCc5c(SC)cc(C)[nH]c5=O)c(C)c4O3)CC2)C1 | – | RNA-seq, item: SRCIN1 mouse homolog | mouse, HT-1376 xenograft, whole blood | dose not given | relative to: vehicle | log2 fold change | 0.882
C/C=C(/C)C(=O)O[C@@H]1C=C(C)CC[C@]2(O)[C@@H](C(C)C)CC(=O)[C@]12C | Helicobacter pylori | microbial growth, broth dilution | – | 15.63 µg/mL | – | inhibition | 0%
Cc1cccc(C)c1CNc1cc(C(=O)N2CCC2)cn2c(C)c(C)nc12 | – | esophageal lesions | rat reflux esophagitis model | oral, 0.5 mg/kg | – | inhibition | 42.2%
CC(C)(C)NCC(SS(=O)(=O)O)c1ccccc1 (stereo not shown) | Schistosoma mansoni | perfusion day 44 | infected Swiss Webster mice | 600 mg/kg single dose, 1056 h, dosed day 15 post-infection | relative to: vehicle control | spleen weight decrease | 52%
C=CC(=O)N1[C@@H](c2ccc3c(c2)OCO3)c2[nH]c3ccccc3c2C[C@H]1C(=O)N1CCN(C)CC1 | CCNE1 WT-3xFLAG:CDK2 complex | co-IP TMT proteomics, item: KIF20B | HEK-293T | 20 µM, 6 h | relative to: DMSO | log2 fold change | -0.14
COCCOCCOCCNC(=O)Cc1cc(CC(=O)N[C@H]2C[C@H]3C(=O)Nc4cc(OCCOCCOCCOC)cc(n4)C(=O)N4CCC[C@H]4C(=O)Nc4cc(OCCOCCOCCOC)cc(n4)C(=O)N4CCC[C@H]4C(=O)Nc4cc(OCCOCCOCCOC)cc(n4)C(=O)N3C2)cc(CC(=O)N[C@H]2C[C@H]3C(=O)Nc4cc(OCCOCCOCCOC)cc(n4)C(=O)N4CCC[C@H]4C(=O)Nc4cc(OCCOCCOCCOC)cc(n4)C(=O)N4CCC[C@H]4C(=O)Nc4cc(OCCOCCOCCOC)cc(n4)C(=O)N3C2)c1 | – | anion binding, ITC | water/methanol 95 vol% (97.7 mol%) | 298 K, added: sodium iodide | – | TΔS | 3.99 ± 0.0717 kcal/mol
C=C(NC(=O)c1csc(-c2nc3c(cc2O)-c2nc(cs2)C(=O)NC(C(C)O)C(=O)NC(=C(C)OC)c2nc(cs2)C(=O)NC2c4nc(cs4)C(=O)NC(COC(=O)c4c5c6c(cccc6n4O)COC(=O)C(OC4CC(C)(O)C(N(C)C)C(C)O4)C2OC5)c2nc-3cs2)n1)C(N)=O (stereo not shown) | Streptococcus pneumoniae | – | -4, immunocompromised mice, lung infection, lung | 4 mg/kg/day three times daily, 24 h post-dose | – | bacterial load | 5.49 log CFU/g
CCN(CC)CC(=O)Nc1cccc(-n2cc(-c3ccc4ccc(-c5cn(-c6cccc(NC(=O)CN(CC)CC)c6)nn5)cc4c3)nn2)c1 | RCC4 | PCR angiogenesis array, item: NOTCH4 | – | 5 x IC50, 2 h, normoxia | relative to: untreated | fold regulation | 1.72
CN1CCCNC(=O)c2cccc(c2)C(=O)NCCCN(C)CCCNc2cccc3c2C(=O)c2cccc(c2C3=O)NCCC1 | SAS | RNA-Seq, item: RSRC2 mRNA | – | 1 µM, 6 h | relative to: untreated cells | log2 fold change | 0.476
Nc1ncc(-c2cc(-c3cnn(CC(F)(F)F)c3)ncc2F)nc1C(=O)NC1CNCC(F)C1 (stereo not shown) | AURKA | KINOMEscan | – | 1 µM | relative to: DMSO control | remaining binding | 78%
COc1cc(O)ccc1CCC(c1ccc(O)cc1)c1cc2c(c(C)c1O)OC(c1ccc(O)cc1)CC2 (mixture of isomers) | – | – | human blood | 30 µM, added: A23187 | – | 12-HETE level | 9760 ± 3180 pg/mL
C=CC(=O)Nc1cccc(Cn2ncc3cnc(Nc4cnn(CCOC)c4)nc32)c1 | HIPK2 human | binding, KINOMEscan | – | 100 nM | lower = stronger binding | percent of control | 84%

Excerpt of the above:
Structure (SMILES) | target or system | test | system | setting | scale | endpoint | result
Cc1cccc(C)c1CNc1cc(C(=O)N2CCC2)cn2c(C)c(C)nc12 | – | esophageal lesions | rat reflux esophagitis model | oral, 0.5 mg/kg | – | inhibition | 42.2%
CNS(=O)(=O)Nc1nccc(Cc2c(C)c3ccc(Oc4ncccc4F)cc3oc2=O)c1F | COR-L88 | cell viability | – | 7 days | – | IC50 | > 1000 nM
